Published values gathered from unrelated publications.
Compare with care: the assays were run in different laboratories. ± marks the error that the study gave.

Cc1c(-c2ccc(N3CCc4cccc(C(=O)Nc5nc6ccccc6s5)c4C3)nc2C(=O)O)cnn1CC12CC3(C)CC(C)(C1)CC(OCCNCC[C@H](O)CO)(C3)C2 — plasma concentration (anaesthetized male beagle dog; iv infusion, 0.1 mg/kg/min, 75 min): < 4 ng/mL
Cc1nc2c([nH]1)c(=O)n(C)c(=O)n2Cc1ccco1 — inhibition (male rat liver microsomes; 20 µM, 3 h, added: DHA-Na 5 mg/L): 12.2 ± 1.88%
O=C(O)CCC(=O)O.[2H]C([2H])([2H])Oc1cc(C)c2[nH]ccc2c1CN1CC[C@@H](C2CC2)C[C@H]1c1ccc(C(=O)O)cc1 — subjects with proteinuria TEAE (multiple ascending dose; healthy Chinese subjects; 300 mg once daily): 0%
COc1ccc2c(c1)CN(C(=O)CCN1CCC(Cc3ccccc3)CC1)CC[S@@+]2[O-] — systolic blood pressure (telemetry; conscious male beagle dogs; intravenous, 4 mg/kg, 24 h): 129 ± 12 mmHg
N[C@H]1C(O)O[C@H](CO)[C@@H](O)[C@@H]1O (some centres unmarked) — osmolality (aqueous solution; 25 mM, added: glucose): 22 mOsmol/kg
Cc1ccc(Sc2ccccc2N2CCNCC2)c(C)c1 — participants with TEAE (measured: haemoglobin decreased; healthy adult women; oral, 10 mg daily, 12 days): 0%
CN(CCCN1CCN(C(=O)CN2CCN(CC(=O)[O-])CCN(CC(=O)[O-])CCN(CC(=O)[O-])CC2)CC1)c1ccc2nccc(C(=O)NCC(=O)N3CC(F)(F)C[C@H]3C#N)c2c1.[68Ga+3] — uptake (mice, HT-1080.hFAP and HT-1080 wild-type xenografts, muscle; iv, 500 pmol, 1 h post injection): 0.5 ± 0.5 %IA/g
Cc1cc([C@H]2C[C@H]3[C@@H](CF)SC(N)=N[C@@]3(c3ccc(F)cc3F)CO2)on1 — brain concentration (male 129/SVE wild-type mouse, brain; subcutaneous, 100 mg/kg, 1 h): 17.2 µM
CCn1cc(C(=O)N2CCOCC2)c(=O)c2cc(NC3Cc4ccccc4C3)cnc21 — AUC(0-last) (human, fed; oral suspension, 1200 mg single dose, arithmetic mean): 39100 ng·h/mL
C=CC(=O)N(C)CCOc1c(N)ncnc1-c1cc(F)cc(NC(=O)c2ccc(C3CC3)cc2F)c1C — AUC (human, plasma; oral, 60 mg single dose): 206 ng·h/mL
CCOc1c([C@H](C)n2nc(C)c3c(N)ncnc32)cc(Cl)c(F)c1[C@@H]1CNC(=O)C1 — Cmax geometric mean (patients, monotherapy; oral, 10 mg once daily, cycle 1 day 1): 0.646 µM
Cc1nc(C)c(-c2ccnc(Nc3ccc(F)cc3)n2)s1 — logP (octanol/buffer, 40 mM buffer; pH 11): 3.96
C[C@@H](Nc1cc(F)cc(F)c1)c1cc(C(=O)N(C)C)cc2c(=O)cc(N3CCOCC3)oc12 — patients with related serious AE (patients with advanced solid tumours; oral, dose not given, dose-expansion phase): 10%
N=C(N)c1ccc2cc(C(=O)Nc3ccc4c(c3)C(c3ccccc3)=NCC4)ccc2c1 — logP (octanol/buffer; pH 11, urokinase ligand set): 3.47
CCn1cc(C)c2c([C@H](O)c3ccc(C(F)(F)F)nc3)n(C)nc2c1=O — CLint,u (rat Sprague-Dawley male, blood; intravenous, 1 mg/kg): 75.9 mL/min/kg
C[C@H]1O[C@@H](O[C@H]2[C@@H](O)C[C@H](O[C@H]3[C@@H](O)C[C@H](O[C@H]4CC[C@@]5(C)[C@H](CC[C@@H]6[C@@H]5C[C@@H](O)[C@]5(C)[C@@H](C7=CC(=O)OC7)CC[C@]65O)C4)O[C@@H]3C)O[C@@H]2C)C[C@H](O)[C@@H]1O — subjects with adverse event (measured: vessel puncture site pain; healthy men; oral, dose not given, 8 days, treatment-emergent, crossover trial): 0%
C[C@@H](O)CCOC(=O)C[C@@H](C)O — decrease (measured: bicarbonate; human, venous blood; oral, dose not given, 60 min; relative to: baseline): -3 mEq/L
CNC(=O)c1ccc(-c2cnc3ncc(Cc4ccc5ncccc5c4)n3n2)cc1F — ALT increased dose reduction/interruption (Japanese patients; oral, 400 mg, grade 3/4): 2%
Cc1ccc([C@@H]2O[C@H](CO)[C@@H](O)[C@H](O)[C@H]2O)cc1Cc1ccc(-c2ccc(F)cc2)s1 — urinary magnesium excretion change (Japanese type 2 diabetes patients; 25 mg, day 6, 24 h urine collection; relative to: baseline): -5.67 mg
O=C(Nc1nc2cccc(-c3ccc(CN4CCS(=O)(=O)CC4)cc3)n2n1)C1CC1 — treatment-emergent adverse events (measured: constipation; human rheumatoid arthritis patients; oral, 300 mg once daily, 4 weeks, regardless of relatedness): 0%

Repeated from above:
CN(CCCN1CCN(C(=O)CN2CCN(CC(=O)[O-])CCN(CC(=O)[O-])CCN(CC(=O)[O-])CC2)CC1)c1ccc2nccc(C(=O)NCC(=O)N3CC(F)(F)C[C@H]3C#N)c2c1.[68Ga+3] — uptake (mice, HT-1080.hFAP and HT-1080 wild-type xenografts, muscle; iv, 500 pmol, 1 h post injection): 0.5 ± 0.5 %IA/g
Cc1cc([C@H]2C[C@H]3[C@@H](CF)SC(N)=N[C@@]3(c3ccc(F)cc3F)CO2)on1 — brain concentration (male 129/SVE wild-type mouse, brain; subcutaneous, 100 mg/kg, 1 h): 17.2 µM
CCn1cc(C(=O)N2CCOCC2)c(=O)c2cc(NC3Cc4ccccc4C3)cnc21 — AUC(0-last) (human, fed; oral suspension, 1200 mg single dose, arithmetic mean): 39100 ng·h/mL
